Assay results from different studies.
Compare with care: the assays were run in different laboratories. Changes are numbered by the printed parent chain.
BMP2 disulfide-linked dimer: BMP2 disulfide-linked dimer (Homo sapiens, UniProt P12643)
UniProt P12643, sequence (whole entry, looked up): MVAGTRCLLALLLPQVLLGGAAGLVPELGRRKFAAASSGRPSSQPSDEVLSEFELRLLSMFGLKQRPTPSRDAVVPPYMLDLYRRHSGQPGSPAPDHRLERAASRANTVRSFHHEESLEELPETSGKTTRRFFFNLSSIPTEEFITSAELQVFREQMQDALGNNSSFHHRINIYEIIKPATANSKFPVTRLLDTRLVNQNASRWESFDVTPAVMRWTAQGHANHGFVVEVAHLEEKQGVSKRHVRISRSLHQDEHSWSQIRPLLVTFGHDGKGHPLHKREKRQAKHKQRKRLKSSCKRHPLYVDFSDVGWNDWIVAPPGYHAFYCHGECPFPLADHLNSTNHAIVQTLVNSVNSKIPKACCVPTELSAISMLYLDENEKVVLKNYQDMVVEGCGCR
WRKY6 full length assumed: WRKY6 full length assumed (Arabidopsis thaliana, UniProt Q9C519)
UniProt Q9C519, sequence (whole entry, looked up): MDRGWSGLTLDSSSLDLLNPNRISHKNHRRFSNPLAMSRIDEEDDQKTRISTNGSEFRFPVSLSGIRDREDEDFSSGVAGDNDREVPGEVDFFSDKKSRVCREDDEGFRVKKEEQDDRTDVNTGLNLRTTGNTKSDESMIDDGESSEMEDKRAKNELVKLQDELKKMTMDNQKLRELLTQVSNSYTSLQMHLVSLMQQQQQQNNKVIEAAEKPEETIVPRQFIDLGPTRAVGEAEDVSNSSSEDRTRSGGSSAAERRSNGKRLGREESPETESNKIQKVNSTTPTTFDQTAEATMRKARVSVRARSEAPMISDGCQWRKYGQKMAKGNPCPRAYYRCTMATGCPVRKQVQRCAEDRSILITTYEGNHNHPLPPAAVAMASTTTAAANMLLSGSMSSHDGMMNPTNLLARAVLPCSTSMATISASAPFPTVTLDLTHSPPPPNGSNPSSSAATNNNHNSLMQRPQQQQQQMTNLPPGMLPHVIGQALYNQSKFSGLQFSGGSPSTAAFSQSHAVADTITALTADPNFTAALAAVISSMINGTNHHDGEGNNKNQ
clp full length assumed: clp full length assumed (Lysobacter enzymogenes, UniProt Q7WZ07)
ELAVL1 full length assumed: ELAVL1 full length assumed (Homo sapiens, UniProt Q15717)
UniProt Q15717, sequence (whole entry, looked up): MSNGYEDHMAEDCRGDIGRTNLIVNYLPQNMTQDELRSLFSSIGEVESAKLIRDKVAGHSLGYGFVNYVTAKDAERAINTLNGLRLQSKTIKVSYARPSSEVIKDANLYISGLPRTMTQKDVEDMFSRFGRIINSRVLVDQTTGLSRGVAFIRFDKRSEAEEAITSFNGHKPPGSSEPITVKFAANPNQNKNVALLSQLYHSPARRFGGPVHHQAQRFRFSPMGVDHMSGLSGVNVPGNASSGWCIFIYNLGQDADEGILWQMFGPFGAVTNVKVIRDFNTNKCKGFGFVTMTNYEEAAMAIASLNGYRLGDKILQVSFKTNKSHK
T1: NFATC1 408-716; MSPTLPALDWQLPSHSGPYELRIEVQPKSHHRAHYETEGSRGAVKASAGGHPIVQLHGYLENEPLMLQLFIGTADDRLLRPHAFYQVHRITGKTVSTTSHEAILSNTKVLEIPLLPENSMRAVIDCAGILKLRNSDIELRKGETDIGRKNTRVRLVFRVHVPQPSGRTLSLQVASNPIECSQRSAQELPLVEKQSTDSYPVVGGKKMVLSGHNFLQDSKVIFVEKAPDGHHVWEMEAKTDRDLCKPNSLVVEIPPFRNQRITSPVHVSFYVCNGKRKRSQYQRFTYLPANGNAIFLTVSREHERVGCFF
T2: SREBF1 residues 1-403 (Rattus norvegicus); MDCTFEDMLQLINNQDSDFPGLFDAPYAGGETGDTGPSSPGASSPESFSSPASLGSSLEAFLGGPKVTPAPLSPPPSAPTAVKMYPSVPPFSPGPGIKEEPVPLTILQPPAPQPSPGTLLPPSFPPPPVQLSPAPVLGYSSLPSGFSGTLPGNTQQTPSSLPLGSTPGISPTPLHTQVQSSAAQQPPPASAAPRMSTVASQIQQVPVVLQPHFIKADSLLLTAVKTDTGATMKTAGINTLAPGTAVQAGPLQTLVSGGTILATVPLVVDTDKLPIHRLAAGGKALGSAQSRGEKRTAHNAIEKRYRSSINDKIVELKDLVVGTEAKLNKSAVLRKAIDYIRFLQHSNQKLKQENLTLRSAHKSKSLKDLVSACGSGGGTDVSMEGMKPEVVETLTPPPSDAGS
P1: NCAM1 residues 745-753 (Mus musculus); IAVNLCGKA; partner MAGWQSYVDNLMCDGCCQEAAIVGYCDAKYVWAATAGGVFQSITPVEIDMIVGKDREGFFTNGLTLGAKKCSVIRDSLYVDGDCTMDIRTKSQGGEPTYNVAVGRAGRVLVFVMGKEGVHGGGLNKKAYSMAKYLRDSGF
B1: RGMA ectodomain (Homo sapiens); chain TSPCKILKCNSEFWSATSGSHAPASDDTPEFCAALRSYALCTRRTARTCRGDLAYHSAVHGIEDLMSQHNCSKDGPTSQPRLRTLPPAGDSQERSDSPEICHYEKSFHKHSATPNYTHCGLFGDPHLRTFTDRFQTCKVQGAWPLIDNNYLNVQVTNTPVLPGSAATATSKLTIIFKNFQECVDQKVYQAEMDELPAAFVDGSKNGGDKHGANSLKITEKVSGQHVEIQAKYIGTTIVVRQVGRYLTFAVRMPEEVVNAVEDWDSQGLYLCLRGCPLNQQIDFQAFHTNAEGTGARRLAAASPAPTAPETFPYETAVAKCKEKLPVEDLYYQACVFDLLTTGDVNFTLAAYYALEDVKMLHSNKDKLHLYERTRDLPGRA
UniProt Q8K3Y3, sequence (whole entry, looked up): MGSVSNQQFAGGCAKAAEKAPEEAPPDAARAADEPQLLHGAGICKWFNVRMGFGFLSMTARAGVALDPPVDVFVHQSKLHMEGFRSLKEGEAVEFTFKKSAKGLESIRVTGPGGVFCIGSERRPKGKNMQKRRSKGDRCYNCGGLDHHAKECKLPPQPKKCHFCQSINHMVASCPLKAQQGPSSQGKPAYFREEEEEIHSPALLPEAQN
UniProt O15527, sequence (whole entry, looked up): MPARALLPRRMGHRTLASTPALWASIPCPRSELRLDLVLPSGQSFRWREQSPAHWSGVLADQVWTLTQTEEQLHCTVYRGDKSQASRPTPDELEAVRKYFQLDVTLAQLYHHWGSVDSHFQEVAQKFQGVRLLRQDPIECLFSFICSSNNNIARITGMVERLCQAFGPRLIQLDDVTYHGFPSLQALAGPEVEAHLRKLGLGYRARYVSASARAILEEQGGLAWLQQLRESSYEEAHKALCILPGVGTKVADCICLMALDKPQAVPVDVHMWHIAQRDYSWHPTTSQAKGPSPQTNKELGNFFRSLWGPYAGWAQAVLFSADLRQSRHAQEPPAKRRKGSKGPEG
UniProt P25822, sequence (whole entry, looked up): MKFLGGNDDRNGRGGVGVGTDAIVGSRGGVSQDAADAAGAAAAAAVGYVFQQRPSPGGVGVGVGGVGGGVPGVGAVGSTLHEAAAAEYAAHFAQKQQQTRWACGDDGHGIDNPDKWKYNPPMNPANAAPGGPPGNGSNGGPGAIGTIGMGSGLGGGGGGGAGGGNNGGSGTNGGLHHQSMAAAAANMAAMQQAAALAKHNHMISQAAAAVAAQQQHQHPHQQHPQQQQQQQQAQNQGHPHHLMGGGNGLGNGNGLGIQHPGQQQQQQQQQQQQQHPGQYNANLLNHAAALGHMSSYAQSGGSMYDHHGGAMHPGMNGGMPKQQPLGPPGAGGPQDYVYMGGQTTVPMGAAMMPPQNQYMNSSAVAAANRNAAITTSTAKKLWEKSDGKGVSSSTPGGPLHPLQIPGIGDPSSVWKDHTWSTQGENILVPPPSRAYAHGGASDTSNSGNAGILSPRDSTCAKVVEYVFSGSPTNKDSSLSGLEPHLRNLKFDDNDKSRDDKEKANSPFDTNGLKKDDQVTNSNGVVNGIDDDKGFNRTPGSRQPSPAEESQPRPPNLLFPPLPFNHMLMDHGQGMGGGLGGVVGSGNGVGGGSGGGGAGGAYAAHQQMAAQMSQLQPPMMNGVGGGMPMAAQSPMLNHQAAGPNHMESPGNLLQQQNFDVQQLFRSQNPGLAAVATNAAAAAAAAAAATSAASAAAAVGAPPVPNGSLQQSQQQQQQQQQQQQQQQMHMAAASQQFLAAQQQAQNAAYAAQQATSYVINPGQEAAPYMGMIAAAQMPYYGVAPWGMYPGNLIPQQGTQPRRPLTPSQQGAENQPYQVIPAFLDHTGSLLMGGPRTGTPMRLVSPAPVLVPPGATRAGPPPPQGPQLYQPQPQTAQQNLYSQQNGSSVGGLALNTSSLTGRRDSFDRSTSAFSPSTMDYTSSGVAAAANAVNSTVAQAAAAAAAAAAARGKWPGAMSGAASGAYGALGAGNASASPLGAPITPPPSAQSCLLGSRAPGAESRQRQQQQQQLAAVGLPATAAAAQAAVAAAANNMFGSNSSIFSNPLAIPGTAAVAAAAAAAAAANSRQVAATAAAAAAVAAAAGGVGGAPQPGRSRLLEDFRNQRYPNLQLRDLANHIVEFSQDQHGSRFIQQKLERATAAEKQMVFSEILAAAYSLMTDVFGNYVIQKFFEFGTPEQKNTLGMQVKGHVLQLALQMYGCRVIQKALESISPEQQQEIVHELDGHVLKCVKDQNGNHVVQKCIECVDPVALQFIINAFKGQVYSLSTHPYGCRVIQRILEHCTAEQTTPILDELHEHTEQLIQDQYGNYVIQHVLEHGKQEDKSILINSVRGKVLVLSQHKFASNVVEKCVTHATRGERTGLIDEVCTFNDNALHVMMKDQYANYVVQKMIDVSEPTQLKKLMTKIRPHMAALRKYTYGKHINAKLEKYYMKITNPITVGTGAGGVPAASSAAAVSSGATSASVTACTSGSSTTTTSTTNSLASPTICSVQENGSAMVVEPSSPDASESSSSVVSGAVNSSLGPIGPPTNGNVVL
UniProt Q60900, sequence (whole entry, looked up): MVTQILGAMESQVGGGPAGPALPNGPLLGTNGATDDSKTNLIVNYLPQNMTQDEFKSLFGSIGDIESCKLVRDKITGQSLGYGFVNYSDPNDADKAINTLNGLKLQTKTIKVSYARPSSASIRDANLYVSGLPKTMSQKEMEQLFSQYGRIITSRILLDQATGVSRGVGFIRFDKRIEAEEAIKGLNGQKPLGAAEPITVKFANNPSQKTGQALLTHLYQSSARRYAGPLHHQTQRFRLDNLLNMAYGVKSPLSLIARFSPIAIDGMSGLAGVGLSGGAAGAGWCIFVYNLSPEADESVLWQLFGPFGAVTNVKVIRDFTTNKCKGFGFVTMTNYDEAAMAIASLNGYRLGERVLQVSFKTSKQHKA
UniProt Q8L7G0, sequence (whole entry, looked up): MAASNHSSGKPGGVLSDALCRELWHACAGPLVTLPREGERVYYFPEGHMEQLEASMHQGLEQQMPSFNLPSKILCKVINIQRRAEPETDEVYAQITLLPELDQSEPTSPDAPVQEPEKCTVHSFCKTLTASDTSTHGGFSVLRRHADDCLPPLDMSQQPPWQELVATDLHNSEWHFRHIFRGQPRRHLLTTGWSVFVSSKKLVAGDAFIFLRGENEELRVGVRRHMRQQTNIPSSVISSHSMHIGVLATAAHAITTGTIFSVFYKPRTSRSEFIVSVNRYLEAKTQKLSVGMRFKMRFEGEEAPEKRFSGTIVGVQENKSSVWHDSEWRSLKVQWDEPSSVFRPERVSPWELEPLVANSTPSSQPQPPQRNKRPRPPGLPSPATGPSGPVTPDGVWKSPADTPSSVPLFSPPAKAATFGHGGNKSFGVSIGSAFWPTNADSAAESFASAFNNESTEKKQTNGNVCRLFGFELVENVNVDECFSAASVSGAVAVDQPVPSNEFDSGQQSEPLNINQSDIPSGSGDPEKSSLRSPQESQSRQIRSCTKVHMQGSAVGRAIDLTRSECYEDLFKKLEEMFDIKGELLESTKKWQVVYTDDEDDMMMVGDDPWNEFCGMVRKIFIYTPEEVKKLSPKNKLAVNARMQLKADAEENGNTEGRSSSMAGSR
UniProt Q9NWB1, sequence (whole entry, looked up): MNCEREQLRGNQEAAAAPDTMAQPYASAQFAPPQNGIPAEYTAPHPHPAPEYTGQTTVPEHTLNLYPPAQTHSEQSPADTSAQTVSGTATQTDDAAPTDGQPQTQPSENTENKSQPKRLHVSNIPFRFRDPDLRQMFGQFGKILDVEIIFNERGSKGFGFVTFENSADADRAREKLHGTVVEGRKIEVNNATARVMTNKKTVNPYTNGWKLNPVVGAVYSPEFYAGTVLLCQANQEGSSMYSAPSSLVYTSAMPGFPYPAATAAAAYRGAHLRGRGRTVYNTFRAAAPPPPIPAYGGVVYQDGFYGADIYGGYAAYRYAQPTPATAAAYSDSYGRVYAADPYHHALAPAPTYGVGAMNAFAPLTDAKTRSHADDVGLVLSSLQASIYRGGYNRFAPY

Molecule	tested on	test	system	setting	how to read	measurement	value
RGMC ectodomain (Homo sapiens, UniProt Q6ZVN8)	BMP2 disulfide-linked dimer	SPR	–	read off a plot	–	Kd	250 nM
GGGUAAUGCCCCUCCCCUCUCACACCUCCGGGAUCAGUGACCGGAGGGCGGUCGGGGAGGGGACACCU (structured RNA (Pyrococcus abyssi); hairpin, internal loop, K-turn)	Uncharacterized protein full length assumed (Pyrococcus abyssi, UniProt Q9V1W8)	EMSA	folded RNA	–	–	binding	no binding
ATGTGTTAGTTGGGGGGTGACTGTTAAAAGTGCATACCGCCAAAAGATAAAATTTGAAATCTG (dsDNA; 2-aminopurine at -1 non-template)	POLRMT/TFB2M 43-1230; 21-396 (Homo sapiens)	2-AP fluorescence	double-stranded DNA, one strand shown	–	–	binding	binds
CTTCCTCCAGATGAGCTCATGGGTTTCTCCACCAAGGAAGTTTTCCGCTGGTTG (dsDNA)	T1, NFATC1 408-716	EMSA	double-stranded DNA, one strand shown	–	–	binding	binds
GGGAGACCUAGCCUCAUAUAAUCGUUGUCCAGAAUGGGAUGGAUUCGUAGCAUAAGUUUUCCAAACAUUAUUUUGUUGUCGAAAAUUGUACAUAAGCCAAUUAAGCCGCUA (ssRNA)	pum 1093-1426 (Drosophila melanogaster, UniProt P25822)	EMSA	RNA	–	–	binding	binds
GAAUUUUUUUUUUUUAAUUCACUAACUUUACUUUAAAAGA (ssRNA)	Elavl3 full length assumed (Mus musculus, UniProt Q60900)	EMSA	RNA	–	–	binding	binds
GGGGUAGUGAUUUUACCCUGUUUAGGAGAU (structured RNA; terminal loop)	Lin28a 1-209 (Mus musculus, UniProt Q8K3Y3)	UV crosslinking, SDS-PAGE	folded RNA	–	–	binding	binds
TTATTCAGCCATCAAAAGTTGACCGATAAT (dsDNA)	WRKY6 full length assumed	EMSA	double-stranded DNA, one strand shown	–	–	binding	binds
CUGUAUCUAUCUGUUUAUCUAUACCUAUCUAUGUAUCUAUCUAUUGAAGUGUGAAAUU (ssRNA)	ELAVL1 1-326 (Homo sapiens, UniProt Q15717)	EMSA	RNA	not purified	–	binding	no binding
TTTACTTGTTAGAAAAGAGCTTTCCAAGGGATATTTCA (dsDNA)	nin 560-878 (Lotus japonicus, UniProt Q9S7B1)	EMSA	double-stranded DNA, one strand shown	–	–	binding	no binding
GCTGTAGTAATTCCAGCGAGAGGCAGAGGGAGCGAGCGGG (dsDNA)	CTCF 261-582 (Homo sapiens, UniProt P49711)	EMSA	double-stranded DNA, one strand shown	protein 400 nM, DNA 40 nM	higher = more DNA shifted	relative binding	< 30%
CAAAGUGCUCAUAGUGCAGGUAGUUUUGGCAUGACUCUACUGUAGUAUGGGCACUUCCAG (structured RNA)	RBFOX1 109-208 (Homo sapiens, UniProt Q9NWB1)	SHAPE footprinting	folded RNA	–	–	binding	binds
P1 N4Q L5A	PFN2	ELISA	–	3.1 µM, read off a plot	higher = more binding	signal	0.09 OD
GGCGGCGGTCTCATCGGTGAAACGGGGCTGGGCGCTCATTTTCTTAAACA (dsDNA)	clp full length assumed	EMSA	double-stranded DNA, one strand shown	–	–	binding	no binding
TTATTCAGCCATCAAAAGTTGACCCATAAT (dsDNA)	WRKY6 full length assumed	EMSA	double-stranded DNA, one strand shown	–	–	binding	binds
B1 (RGMA ectodomain)	BMP2 disulfide-linked dimer	SPR	–	read off a plot	–	Kd	1100 nM
CAGGAUUUAAAAUUUAAUUAUAUCAGUAAAGAGAUUAAUUUUAAC (ssRNA)	ELAVL1 full length assumed	EMSA	RNA	–	–	binding	no binding

Molecule	tested on	test	system	setting	how to read	measurement	value
CAGCAGCAGCAGCAGCAGCAGCAGCAGCAG (dsDNA; blunt 30 bp, 8-oxoG G15)	OGG1 (Homo sapiens, UniProt O15527)	NaBH4 trapping, SDS-PAGE	double-stranded DNA, one strand shown	–	–	binding	binds
GCAGAUUGAGGGUCUAUGAUACCACCCGGUACAAAAGAUAUCUGCA (structured RNA)	Lin28a 119-180 (Mus musculus, UniProt Q8K3Y3)	NMR HSQC	folded RNA	together with: Zn2+	–	binding	binds
CTCTCGCCTTCC (dsDNA; 12-mer duplex)	OGG1 1-345 (Homo sapiens, UniProt O15527)	stopped-flow fluorescence	double-stranded DNA, one strand shown	–	–	binding	binds
AGGGGGCCGUGGGGUGGGAGCUGGGG (G-quadruplex RNA; G4)	SF3B4 1-424 (Homo sapiens, UniProt Q15427)	EMSA	folded RNA	100 nM	–	binding	binds
TTATTCAGCCATCAAATGTTGACCATTAAT (dsDNA)	WRKY6 full length assumed	EMSA	double-stranded DNA, one strand shown	–	–	binding	binds
AGGCGAGUAGGGUAUGCUG (ssRNA)	TARDBP 1-414 (Homo sapiens, UniProt Q13148)	UV cross-linking	RNA, S100	–	–	binding	no binding
GCUGGUUUCAUAUGGUGGUUUAGAUUUAAAUAGUGAUUGUCUAGCACCAUUUGAAAUCAGUGUU (structured RNA)	DICER1 (Homo sapiens, UniProt Q9UPY3)	EMSA	folded RNA	30 nM	–	binding	binds
UCGAUGUUUUGGGUAUUGAAUGUGGUAAGUGGAGGAAAUG (ssRNA)	ELAVL1 full length assumed	EMSA	RNA	–	–	binding	no binding
TTATTCAGCCATCAAAAGTTCACCAATAAT (dsDNA)	WRKY6 full length assumed	EMSA	double-stranded DNA, one strand shown	–	–	binding	no binding
TGCTGATTGGCCATGTGCGCTCACCCGAGGGGCGGGG (dsDNA)	T2, SREBF1 residues 1-403 (Rattus norvegicus)	EMSA	double-stranded DNA, one strand shown	–	–	binding	binds
TTATTCAGCCATCAAAAGGTGACCAATAAT (dsDNA)	WRKY6 full length assumed	EMSA	double-stranded DNA, one strand shown	–	–	binding	no binding
ATGAGCGAGATGGAT (dsDNA)	msl-2 520-570 C560G (Drosophila melanogaster, UniProt P50534)	crystal structure	double-stranded DNA, one strand shown	together with: Zn2+	–	binding	binds
GATATTCCAAAGAATGCGTTGCGTCGCATTGCAATCGGGCCTGCGCCTTT (dsDNA)	clp full length assumed	EMSA	double-stranded DNA, one strand shown	–	–	binding	no binding
CAAACAAAACCGUGUAAAAACAAA (ssRNA)	rnr 82-725 (Mycoplasmoides genitalium, UniProt P47350)	fluorescence polarization	RNA	together with: Mg2+	–	binding	binds
TTCTAGAAAGAACACGTGTTTCGTATTACT (dsDNA)	Basic helix-loop-helix transcription factor 1-394 (Salvia miltiorrhiza, UniProt A0A0H3Y8V8)	EMSA	double-stranded DNA, one strand shown	–	–	binding	binds
TTATTCAGCCATCAAAAGTTGACGAATAAT (dsDNA)	WRKY6 full length assumed	EMSA	double-stranded DNA, one strand shown	–	–	binding	no binding
AGTCTTTTTGGTCTCTGGTCGGTCGACAATCCGTGTG (dsDNA; 5-C6-amino-dT labels)	ARF1 1-355 (Arabidopsis thaliana, UniProt Q8L7G0)	smFRET kinetics	double-stranded DNA, one strand shown	–	–	binding	binds

A few entries again:
Molecule	tested on	test	system	setting	how to read	measurement	value
RGMC ectodomain (Homo sapiens, UniProt Q6ZVN8)	BMP2 disulfide-linked dimer	SPR	–	read off a plot	–	Kd	250 nM
GGGUAAUGCCCCUCCCCUCUCACACCUCCGGGAUCAGUGACCGGAGGGCGGUCGGGGAGGGGACACCU (structured RNA (Pyrococcus abyssi); hairpin, internal loop, K-turn)	Uncharacterized protein full length assumed (Pyrococcus abyssi, UniProt Q9V1W8)	EMSA	folded RNA	–	–	binding	no binding
ATGTGTTAGTTGGGGGGTGACTGTTAAAAGTGCATACCGCCAAAAGATAAAATTTGAAATCTG (dsDNA; 2-aminopurine at -1 non-template)	POLRMT/TFB2M 43-1230; 21-396 (Homo sapiens)	2-AP fluorescence	double-stranded DNA, one strand shown	–	–	binding	binds
CTTCCTCCAGATGAGCTCATGGGTTTCTCCACCAAGGAAGTTTTCCGCTGGTTG (dsDNA)	T1, NFATC1 408-716	EMSA	double-stranded DNA, one strand shown	–	–	binding	binds
GGGAGACCUAGCCUCAUAUAAUCGUUGUCCAGAAUGGGAUGGAUUCGUAGCAUAAGUUUUCCAAACAUUAUUUUGUUGUCGAAAAUUGUACAUAAGCCAAUUAAGCCGCUA (ssRNA)	pum 1093-1426 (Drosophila melanogaster, UniProt P25822)	EMSA	RNA	–	–	binding	binds
